Experimental data of several laboratories.
A part holds a random share of what one study measured.

Series 1 — technique: competition protein-binding microarray; form: double-stranded DNA, one strand shown; sample: in vitro; concentration: 2 µM; together with: Pho4 competitor, 0.05 µM; direction: higher = stronger binding; measurement: fluorescence intensity; constant ends, left off below: … GTCTTGATTCGCTTGACGCTGCTG
Target: Centromere-binding protein 1, full length, His-tagged (CBF1, Saccharomyces cerevisiae, UniProt P17106, residues 1-351)
UniProt P17106, sequence (whole entry, looked up): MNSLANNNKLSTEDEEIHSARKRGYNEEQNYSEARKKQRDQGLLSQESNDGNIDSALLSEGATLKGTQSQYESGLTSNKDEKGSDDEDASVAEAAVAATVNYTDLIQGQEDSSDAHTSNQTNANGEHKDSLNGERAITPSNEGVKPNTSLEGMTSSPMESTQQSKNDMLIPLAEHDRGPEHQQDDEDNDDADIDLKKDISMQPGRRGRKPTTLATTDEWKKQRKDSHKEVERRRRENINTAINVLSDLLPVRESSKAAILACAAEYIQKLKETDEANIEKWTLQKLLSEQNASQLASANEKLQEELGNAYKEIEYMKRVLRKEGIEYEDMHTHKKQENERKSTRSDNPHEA
Setting: whole 60-bp probe, lowest competitor level
GCTCAAAAACCCCGTCACGTCATAAATCTTTCTGTT: 111 a.u.
AAAGCGGTAATTTGGGTGGTGGGTGCAGATATCTAT: 74.7 a.u.
AAAGCGGTAATTTGAAACGTGGGTGCAGATATCTAT: 109 a.u.
CTTCTCGCGGTGGTGCCCGTGGTGATTCCAGAGGCG: 67.9 a.u.
GTCTTGTCTCATTGGGAAGTGGGTGTCCCCACTTCA: 90.5 a.u.
TTGCTGTTTCTAAGAAGCGTGGGACAACGCAATGAA: 68.5 a.u.
CGGGGTTAAGTTTGTAGAGTGGGTGGCTTGCAGCAG: 61.8 a.u.
AAAGTTTTCAACCTCCACGTGTTCCTTAGTTTCCCT: 921 a.u.
ACACCTGACTCGGACCATGTGGCTAAGTTTGTTTTG: 231 a.u.
AAATTACTAAGTTGTCGCGTGGGTGACGCCGTATGA: 84.2 a.u.
CTTTCCCGATCTTGTCACGCTACTTTAGCACATTTG: 277 a.u.
CATACCCAACCTTGTCACGGAACTTAAGATATTTGT: 102 a.u.
TGCGCAACAACTTTTCACGTGTAATTATGTCTAGAA: 875 a.u.
CTTTCCCGATCTTGAAAGGTGGGTGTAGCACATTTG: 62.2 a.u.
CACCTCTCGACCCGTCACGTCAAGGTTTGCTGCCTC: 74.3 a.u.
AGTAAAAGTCGTCGGCACGGGCCCCAAACGATAGAG: 66.8 a.u.
GCATTTGTCTTCTTTCATTTGAAATCTTCATAATCT: 88.4 a.u.
GAGTAAAGATGTTAGCACGTGATGGGCTGCAGAGGT: 3810 a.u.
CATACCCAACCTTTCCACGTGTTTTAAGATATTTGT: 1020 a.u.
TGCGCAACAACTTGGATCGTGGGTGTATGTCTAGAA: 78.7 a.u.
CTTCTGTAAATTTGTCACTGGACTTGACGCGCCCCG: 97.7 a.u.
ACACCTGGGTTTCCGCACGTGTTTCACCATCCCAAA: 1190 a.u.
TGGATTTTTCCAAAACACGTGTCGGAAACTTATTTT: 2270 a.u.
CTACGCCATCGTTAGCACGCAGAATATTACTTTTTC: 80.9 a.u.
GTCGCGTAATTTTCTTGAAACCATCCATTCACCGAT: 80.1 a.u.

Series 2 — technique: RNA Bind-n-Seq; form: RNA; sample: in vitro; concentration: 200 nM; setting: whole 134-nt RNA, ends assumed; together with: 150 mM KCl; reference: input library; direction: higher = stronger binding; measurement: log2 enrichment
Target: Ras GTPase-activating protein-binding protein 1, full length (G3BP1, Homo sapiens, UniProt Q13283)
UniProt Q13283, sequence (whole entry, looked up): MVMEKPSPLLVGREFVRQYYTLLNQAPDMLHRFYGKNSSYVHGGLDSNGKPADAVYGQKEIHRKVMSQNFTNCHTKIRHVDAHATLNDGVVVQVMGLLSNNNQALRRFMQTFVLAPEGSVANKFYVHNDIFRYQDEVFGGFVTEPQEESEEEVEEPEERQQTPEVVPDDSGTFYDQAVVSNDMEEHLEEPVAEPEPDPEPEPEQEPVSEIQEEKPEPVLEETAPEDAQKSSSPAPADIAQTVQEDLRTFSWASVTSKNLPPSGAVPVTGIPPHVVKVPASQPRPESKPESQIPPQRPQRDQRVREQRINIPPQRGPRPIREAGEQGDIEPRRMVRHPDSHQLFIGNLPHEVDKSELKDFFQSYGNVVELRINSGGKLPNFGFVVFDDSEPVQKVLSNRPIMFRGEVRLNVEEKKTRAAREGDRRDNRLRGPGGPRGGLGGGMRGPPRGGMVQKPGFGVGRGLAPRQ
Constant ends, left off below: GGGAGUUCUACAGUCCGACGAUC … UGGAAUUCUCGGGUGUCAAGG
CCCGAGCCGGAGAGGGAGCGCGAGCCGCGCCGGCCCCGGUCGGGCCUCCGAAACCAUGAACUUUCUGCUGUCUUGGGUGCAUUGGAGCCU: 0.0887
ACUGAUGAGAGCCUGAGGAGCCAUUUUGAGCAAUGGGGAACGCUCACGGACUGUGUGGUAAGAUUUGGAAGGGACAAAGCAGUAAAACAG: 0.564
AAGUCCUGUGCUACACAUCGUAUGUACCGAAUCGGUUUUUGGAAAAAGGAAAAAGGAAAGUAUUAUGUUACGCCGUUCGGAUCUGCACUU: -1.1
GUCCUGUGCUACACAUCGUAUGUACCGAAUCGGGGAAAGGGGAAAAAAAGGGGUGGGGAAAGUAUUAUGUUACGCCGUUCGGAUCUGCAC: 0.548
CCUCAAGUCCUGUGCUACACAUCGUAUGUACCGAAUCGGGGCGGGGCGGCGGAAAGUAUUAUGUUACGCCGUUCGGAUCUGCACUUCCAG: -0.06
UCCUGUGCUACACAUCGUAUGUACCGAAUCGGGAAAAAAAGGGAAAAAGGGAAAAAGGGAAAGUAUUAUGUUACGCCGUUCGGAUCUGCA: -0.343
ACCAUGCAGGUGGGCAUCUUUGGGAAGUGGGGCAAGGGGGGGAUCGGGAGGGGGGUAACACUUUGGGAACAGGUGGUCCCAGGUCGUUUC: 1.25
AAGUCCUGUGCUACACAUCGUAUGUACCGAAUCGGGUUUUGGUUUUGGGUUUUGGGAAAGUAUUAUGUUACGCCGUUCGGAUCUGCACUU: -1.03
UCCUGUGCUACACAUCGUAUGUACCGAAUCGGGGUGGGGAAAAAGGGGAAAAAAAGGGGAAAGUAUUAUGUUACGCCGUUCGGAUCUGCA: 0.654
GUCCUGUGCUACACAUCGUAUGUACCGAAUCAAACCCCCAAACCCAAACCCCCCCAAAAAAGUAUUAUGUUACGCCGUUCGGAUCUGCAC: -0.294
ACCAUGCAGGUGGGCAUCUUUGGGAAGUGGGGCAAGGGGUGGAUAGGGAGGGGGGUAACACUUUGGGAACAGGUGGUCCCAGGUCGUUUC: 1.01
AAGUCCUGUGCUACACAUCGUAUGUACCGAAUCGGGAAAAAGGGUUUGGGUUUGGGAAAGUAUUAUGUUACGCCGUUCGGAUCUGCACUU: 0.218
AGUCCUGUGCUACACAUCGUAUGUACCGAAUCGGGGCCCCCGGCCCCCGGCCCCCGGGAAAGUAUUAUGUUACGCCGUUCGGAUCUGCAC: -0.988
GUCCUGUGCUACACAUCGUAUGUACCGAAUCGGGUUUUUUUGGGUUUUUGGGAAAGGGAAAGUAUUAUGUUACGCCGUUCGGAUCUGCAC: -0.447

Series 3 — technique: universal PBM; form: double-stranded DNA, one strand shown; sample: in vitro; concentration: not given; direction: higher = stronger binding; measurement: E-score
Target: Sal-like protein 4, full length isoform B (SALL4, Homo sapiens, UniProt Q9UJQ4-2, residues 1-616)
Setting: 8-mer, flanks averaged, mean of replicates
AGGGAACA: -0.0332
CGTGGCAC: -0.247
CACCAAAG: 0.0297
CCGTAACA: 0.12
GGACTATA: 0.229
CTGAGCCC: -0.263
GACGATGC: -0.0577
ATTGTTGG: 0.134
GGCCGGCA: -0.237
TCATAACA: 0.387
GTACACCA: -0.0429
CTCCCCGA: -0.301
AGAAACCA: -0.0697
CATAACGC: 0.167
CTATTTAA: 0.214
ATTGTAGG: 0.271
ACTCAGTA: 0.0162
CGTAGCGC: -0.205
ACCACCGT: -0.211
GGGTACCA: -0.247
CACACTGG: -0.189
ATGGAGCA: -0.034
ACCTACCG: -0.153
GCCATCGA: -0.119
AGGGTCCC: -0.29

Series 4 — technique: RNA Bind-n-Seq; form: RNA; sample: in vitro; concentration: 365 nM; reference: no-protein control; direction: higher = stronger binding; measurement: RBNS enrichment (R)
Target: RNA binding protein fox-1 homolog 2, RRM domain, GST-SBP tag (RBFOX2, Homo sapiens, UniProt O43251-10, residues 100-194)
Setting: natural RNA segment, single round, ends assumed
Constant ends, left off below: GGGAGUUCUACAGUCCGACGAUC … UGGAAUUCUCGGGUGCCAA
Construct (chain): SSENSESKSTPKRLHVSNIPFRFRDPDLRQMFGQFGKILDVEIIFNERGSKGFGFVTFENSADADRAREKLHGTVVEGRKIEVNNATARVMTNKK
CUUUAACCUCUUAGUUGUCUAAGAGUUAAAUAUUACUGAAUUUCAGACGUUCAAAUUGAUCAUCACAAAUCCUUUAAAACAAUUACCUAAAAGAAACCAAAAAUCCUGCC: 0.778
CAGAGUCUGUGGGGAGGAUGGUGGGUGGGCAGCCAGCCCUGUUGCUAUGUUGCUUCUUCCACACCCCCUCAAGACAGGUGCAUAGGUGGCACUGGGAACAUCCUACGCAG: 0.419
GGAUGCCAGUUGGCAGCUGGAUCCUUCUGUUCACACGACUUGGAACCUUUUGUCCUUUGGGGCUGGGCACCUCCAGACCCUCUGUGUGUCCCUGUCAUCUGGGGAUGGGG: 0.478
UCCACACACACACACACCCCUCUUGCCCAGGUGGCCUCUUGUCCUCUGCUCUUGACUCUGCCAGCCCUGAUUUUCUGGGCUGGGCUCACUGGCUCUCAAUGCCACCUUCG: 0.562
UUAUCAAAUACACAAAGAUUUUUUUGCAUAUGUUUCCUUCGUUUAAAACCAGUUUCAUAAUUGGUUGUAUAUGUAGACUUGGAGUUUUAUCUUUUUACUUGUUGCCAUGG: 0.711
ACCUUGACGGAGGAAACUCCUCAGACGCAUGAAGCUCUUGACCUCCGUUUGCUUUGGAAAAAACAAAACAAAACAAAACAAAACAAAAAACAAAAACACUGCGCAUUUCA: 3.53
GCCAGUAGGCAUUCUGUACCAACUUCUAAUAGAAAUGAGGCAAGGACAAACUUGGAUCAAGAGGACCCAUUUGGGUGAGGGACCAGGUGGUUUCCAAUCCAGUGUGGACA: 0.491
AUGUAACAGAACAGUCUAGAGAAGAUUAAGGACCACAUGGCUUUCUUGCUCUACUUGAAAUUAAUUGUGAGCAUAAGCUUGUUUCUGGAGUCUUCUUACAUUGUUGGUUC: 0.434
GAACAGUCUCCCUCGUCCCACCCACUGCCUCGUUAACUAGAUCCCACAUCAGUGUGCUGAGUACCUGACCUCCAGGAUCUCCUCCACUUUGUUCUCACACCCCACUGCCC: 1.43
UGGCCAAAAGCCCCGUAUCAAACUGCCAUUUCUUCCGGUUUCUGUGGACCUUGUGGCCAGGUGCUCUUCCCGAGCCACAGGUGUUCUGUGAGCUUGCUUGUGUGUGUGUG: 0.943
CCCGAGCCCUCCACACCAGCCUCCUGUAUCUCAUCAGGUCCCUUCUCAGUACUGUAUUUGCUCAGUGCAUCAGGAAUGGGUGUAUGGGUGUGUGUGGGUGGGUGUGAGUG: 0.268
AAAGAGAAGACAUCAUCUGGCCAGGCCAAAAAGAAUGGGACAAAGAAAGAAACCCAGAAAACGAGCAAGAGAAAAAAAUCUUCCCCAGUGCCCAACCCCAAUCUCAGCUG: 1.2

For quick reference, copied from above (series 4):
GAACAGUCUCCCUCGUCCCACCCACUGCCUCGUUAACUAGAUCCCACAUCAGUGUGCUGAGUACCUGACCUCCAGGAUCUCCUCCACUUUGUUCUCACACCCCACUGCCC: 1.43
UGGCCAAAAGCCCCGUAUCAAACUGCCAUUUCUUCCGGUUUCUGUGGACCUUGUGGCCAGGUGCUCUUCCCGAGCCACAGGUGUUCUGUGAGCUUGCUUGUGUGUGUGUG: 0.943
CCCGAGCCCUCCACACCAGCCUCCUGUAUCUCAUCAGGUCCCUUCUCAGUACUGUAUUUGCUCAGUGCAUCAGGAAUGGGUGUAUGGGUGUGUGUGGGUGGGUGUGAGUG: 0.268
AAAGAGAAGACAUCAUCUGGCCAGGCCAAAAAGAAUGGGACAAAGAAAGAAACCCAGAAAACGAGCAAGAGAAAAAAAUCUUCCCCAGUGCCCAACCCCAAUCUCAGCUG: 1.2
